Published values of several laboratories.
Each numbered part is a random draw from the data of one study; scales do not carry over between parts. Changes are numbered by the printed parent chain.

Series 1
Target: Prothrombin, mature alpha-thrombin (F2, Homo sapiens, UniProt P00734)
Technique: aptamer microarray, sandwich
Form: DNA with 2'F-ANA
Medium: in vitro
Concentration: 200 nM
Setting: whole 15-mer aptamer, many near background
Together with: Cy3 exosite-II aptamer, 400 nM
Direction: higher = stronger binding
Quantity: mean fluorescence intensity
Oligonucleotide: GGTTGGTGTGGTTGG
Modification = 2'F-ANA at 4 5 8 11 14; result = 46.1 a.u.
Modification = 2'F-ANA at 3 4 6 7 8 11 12 13 15; result = 570 a.u.
Modification = 2'F-ANA at 1 4 6 7 8 9 10 11 12 15; result = 72.5 a.u.
Modification = 2'F-ANA at 1 4 8 11 15; result = 119 a.u.
Modification = 2'F-ANA at 4 5 9 10 11 12 14 15; result = 46.4 a.u.
Modification = 2'F-ANA at 3 4 7 8 12 14 15; result = 538 a.u.
Modification = 2'F-ANA at 1 2 3 6 10 11 12 13 14 15; result = 53.6 a.u.
Modification = 2'F-ANA at 1 2 4 5 12; result = 124 a.u.
Modification = 2'F-ANA at 1 2 3 7 8 10 11; result = 88.8 a.u.
Modification = 2'F-ANA at 1 2 6 8 9 11 13; result = 116 a.u.

Series 2
Target: CCNE2, cyclin fold, Cln2 fusion (human)
Technique: yeast growth competition, sequencing
Medium: yeast
Setting: weak parent motif
Baseline: not given
Direction: higher = stronger binding
Quantity: normalised enrichment score
Starting sequence: SAMHD1 docking peptide (human); ASKSRVQLFKDDP
Substitution = L8S; result = -0.163
Substitution = K10L; result = 0.459
Substitution = Q7V; result = 0.3
Substitution = K3S; result = -0.239
Substitution = Q7D; result = -0.124
Substitution = D11E; result = 0.153
Substitution = F9S; result = -0.0944
Substitution = D11F; result = 0.234
Substitution = S4H; result = 0.384
Substitution = S4C; result = 1.25

Series 3
Target: Histone acetyltransferase KAT6A, winged helix 1, GST fusion (KAT6A, Homo sapiens, UniProt Q92794, residues 1-85)
Technique: protein binding microarray
Form: double-stranded DNA, one strand shown
Medium: in vitro
Concentration: not given
Setting: 8-mer, flanks averaged, mean of 2 arrays, mostly near background
Baseline: not given
Direction: higher = stronger binding
Quantity: E-score
Construct (chain): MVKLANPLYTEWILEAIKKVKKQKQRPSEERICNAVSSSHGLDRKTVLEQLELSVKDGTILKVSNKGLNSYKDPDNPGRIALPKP
Oligonucleotide = AACTGTTA; result = 0.0439
Oligonucleotide = CTTTACGA; result = 0.000655
Oligonucleotide = AGCACCAC; result = -0.188
Oligonucleotide = CAGGGGGC; result = 0.14
Oligonucleotide = AGTACGAA; result = -0.132
Oligonucleotide = CCGATTAC; result = 0.0868
Oligonucleotide = AGGATAAT; result = -0.116
Oligonucleotide = TACCCTGA; result = -0.01
Oligonucleotide = AGGCGGGC; result = 0.313
Oligonucleotide = TACACCCA; result = -0.198
Oligonucleotide = AGGCTCGG; result = -0.0362
Oligonucleotide = GACCAAGC; result = -0.0434

Other studies, line by line
Substance = PhoQ, residues 284 288 289 292 302 303 TNASYF; target = PhoP, residues 12 14 15 18 19 SGWQI (Escherichia coli, UniProt P23836); test = Sort-seq, item: YFP reporter; test system = E. coli; setting = PhoQ-PhoP variant library, together with: 10 µM Mg2+; how to read = baseline: high Mg2+ state, higher = stronger signaling; quantity = fold induction; result = 0.923
